Experimental data from different studies.
Lines come from different studies, so protocols differ. ± marks the error that the study gave.

Compound	cell line	test	system	setting	how to read	quantity	result
CCc1noc(CC)c1C(=O)O[C@H]1C(C)=C[C@]23C(=O)[C@@H](C=C(CO)[C@@H](O)[C@]12O)[C@H]1[C@@H](C[C@H]3C)C1(C)C	B16-F10	cytotoxicity, PrestoBlue	MEM with 10% FBS	30 min		EC50	64 µM
O=C(C[Se]C(=O)c1cccnc1Nc1cccc(C(F)(F)F)c1)Nc1cccc(C(F)(F)F)c1	NCI60 CNS subpanel	NCI60 five-dose screen				CC50	9.12 µM
CC1CCC2C(C)C(OC(=O)CCC(=O)N3CCC(Nc4ccc(S(=O)(=O)NC(=O)c5ccc(N6CCN(CC7=C(c8ccc(Cl)cc8)CC(C)(C)CC7)CC6)cc5Oc5cnc6[nH]ccc6c5)cc4[N+](=O)[O-])CC3)OC3OC4(C)CCC1C32OO4 (stereo not shown)	THP-1	annexin V/PI flow cytometry		0.8 µM, 24 h		apoptotic cells	70%
CC(=O)NCSC[C@H](NC(=O)[C@@H]1CCCN1C(=O)[C@H](C)NC(=O)[C@@H](NC(=O)CNC(=O)[C@@H](NC(=O)[C@H](Cc1c[nH]c2ccccc12)NC(=O)[C@H](C)NC(=O)CNC(=O)[C@H](CO)NC(=O)[C@H](C)NC(=O)[C@@H]1CCCN1C(=O)[C@H](Cc1c[nH]c2ccccc12)NC(=O)[C@H](C)NC(=O)[C@H](C)NC(=O)[C@@H](N)Cc1ccc(O)cc1)[C@@H](C)O)[C@@H](C)O)C(=O)N[C@@H](CO)C(=O)N[C@@H](C)C(=O)NCC(=O)N[C@H](C(=O)NCCOCCOCCOCCOCCOCCOCCOCCOCCOCCOCCOCCOCCC(=O)N[C@@H](CS)C(N)=O)[C@@H](C)O	BEAS-2B bronchial epithelial	cell binding, phage binding, refers to: output/input phage		10 min, 37 °C	baseline: control phage	selectivity ratio	3.1 ± 0.67
CSCC[C@H](N)C(=O)N[C@@H](C)C(=O)N[C@@H](Cc1c[nH]c2ccccc12)C(=O)N[C@@H](Cc1c[nH]cn1)C(=O)N[C@@H](CC(=O)O)C(=O)N[C@@H](CC(=O)O)C(=O)N[C@@H](CCC(=O)O)C(=O)N[C@@H](CCC(=O)O)C(=O)N[C@@H](Cc1ccccc1)C(=O)N[C@@H](C)C(=O)N[C@@H](CCCNC(=N)N)C(=O)N[C@@H](CCCNC(=N)N)C(=O)N[C@@H](CCCNC(=N)N)C(=O)N[C@@H](CCCNC(=N)N)C(=O)NCCCCCC(=O)NCCCCC(NC(=O)CCCCCNC(=O)[C@H](CCCNC(=N)N)NC(=O)[C@H](CCCNC(=N)N)NC(=O)[C@H](CCCNC(=N)N)NC(=O)[C@H](CCCNC(=N)N)NC(=O)[C@H](C)NC(=O)[C@H](Cc1ccccc1)NC(=O)[C@H](CCC(=O)O)NC(=O)[C@H](CCC(=O)O)NC(=O)[C@H](CC(=O)O)NC(=O)[C@H](CC(=O)O)NC(=O)[C@H](Cc1c[nH]cn1)NC(=O)[C@H](Cc1c[nH]c2ccccc12)NC(=O)[C@H](C)NC(=O)[C@@H](N)CCSC)C(=O)NCCCCC(NC(=O)C(CCCCNC(=O)CCCCCNC(=O)[C@H](CCCNC(=N)N)NC(=O)[C@H](CCCNC(=N)N)NC(=O)[C@H](CCCNC(=N)N)NC(=O)[C@H](CCCNC(=N)N)NC(=O)[C@H](C)NC(=O)[C@H](Cc1ccccc1)NC(=O)[C@H](CCC(=O)O)NC(=O)[C@H](CCC(=O)O)NC(=O)[C@H](CC(=O)O)NC(=O)[C@H](CC(=O)O)NC(=O)[C@H](Cc1c[nH]cn1)NC(=O)[C@H](Cc1c[nH]c2ccccc12)NC(=O)[C@H](C)NC(=O)[C@@H](N)CCSC)NC(=O)CCCCCNC(=O)[C@H](CCCNC(=N)N)NC(=O)[C@H](CCCNC(=N)N)NC(=O)[C@H](CCCNC(=N)N)NC(=O)[C@H](CCCNC(=N)N)NC(=O)[C@H](C)NC(=O)[C@H](Cc1ccccc1)NC(=O)[C@H](CCC(=O)O)NC(=O)[C@H](CCC(=O)O)NC(=O)[C@H](CC(=O)O)NC(=O)[C@H](CC(=O)O)NC(=O)[C@H](Cc1c[nH]cn1)NC(=O)[C@H](Cc1c[nH]c2ccccc12)NC(=O)[C@H](C)NC(=O)[C@@H](N)CCSC)C(N)=O (stereo partly shown)	mouse bone marrow macrophages	RT-qPCR, refers to: Mapk11 (p38β)		concentration not given, mean, unit not given, added: RANKL	baseline: RANKL alone	mRNA level	1.2
CC(C)CC(O)(CC(C)C)c1cn(C(=O)N2CCCC2)nn1	mouse T-cells	SILAC proteomics, refers to: TMSB4X		1 nM, 6 h, unit not given	baseline: DMSO	protein level	1.19
O=c1n(CCNCCOS(=O)(=O)c2ccccc2)c(=O)n(S(=O)(=O)c2ccccc2)c(=O)n1S(=O)(=O)c1ccccc1	A549	cell growth or viability, MTT		50 µg/mL, 72 h		viability	41.4%
Cc1cc(Oc2nc(N3CC[C@@H](c4ccncc4)C3)ncc2F)[nH]n1	HCT-116	cell proliferation	colon cancer			IC50	47.9 µM
CC(C)(C)C(=O)OCOP(=O)(OCOC(=O)C(C)(C)C)C1CCCN(O)C1=O (stereo not shown)	UO-31					GI50	0.306 µM
O=C(C[Se]C(=O)c1cccs1)Nc1cccc(C(F)(F)F)c1	NCI60 colon subpanel	NCI60 five-dose screen				GI50	3.2 µM
